Measured values collected from several papers.
Numbered parts are unrelated; each lists some results of a single study. Several values in a cell are separate wells, animals, samples, runs or records.
Chain of UniProt Q9NYY3 (whole entry, looked up): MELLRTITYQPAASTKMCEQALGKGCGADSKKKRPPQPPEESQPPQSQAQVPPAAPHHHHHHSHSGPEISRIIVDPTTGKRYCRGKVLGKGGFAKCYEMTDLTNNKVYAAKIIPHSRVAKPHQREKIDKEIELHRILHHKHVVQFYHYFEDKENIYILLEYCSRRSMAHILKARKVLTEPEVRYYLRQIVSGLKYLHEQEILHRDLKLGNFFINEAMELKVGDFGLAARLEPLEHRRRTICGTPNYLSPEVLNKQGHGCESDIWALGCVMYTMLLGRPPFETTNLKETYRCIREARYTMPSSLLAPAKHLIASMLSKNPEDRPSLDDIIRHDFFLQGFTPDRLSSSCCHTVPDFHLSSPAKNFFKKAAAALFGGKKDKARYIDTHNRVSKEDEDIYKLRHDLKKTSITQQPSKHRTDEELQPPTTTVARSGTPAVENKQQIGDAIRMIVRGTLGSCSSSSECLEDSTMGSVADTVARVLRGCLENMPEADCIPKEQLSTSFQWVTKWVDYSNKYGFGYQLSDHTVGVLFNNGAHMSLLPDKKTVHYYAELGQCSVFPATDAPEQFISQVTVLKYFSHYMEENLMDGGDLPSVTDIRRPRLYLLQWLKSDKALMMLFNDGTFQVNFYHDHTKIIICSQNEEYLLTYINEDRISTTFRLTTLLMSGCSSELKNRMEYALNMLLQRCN
Chain of UniProt P07949 (whole entry, unmodified, looked up): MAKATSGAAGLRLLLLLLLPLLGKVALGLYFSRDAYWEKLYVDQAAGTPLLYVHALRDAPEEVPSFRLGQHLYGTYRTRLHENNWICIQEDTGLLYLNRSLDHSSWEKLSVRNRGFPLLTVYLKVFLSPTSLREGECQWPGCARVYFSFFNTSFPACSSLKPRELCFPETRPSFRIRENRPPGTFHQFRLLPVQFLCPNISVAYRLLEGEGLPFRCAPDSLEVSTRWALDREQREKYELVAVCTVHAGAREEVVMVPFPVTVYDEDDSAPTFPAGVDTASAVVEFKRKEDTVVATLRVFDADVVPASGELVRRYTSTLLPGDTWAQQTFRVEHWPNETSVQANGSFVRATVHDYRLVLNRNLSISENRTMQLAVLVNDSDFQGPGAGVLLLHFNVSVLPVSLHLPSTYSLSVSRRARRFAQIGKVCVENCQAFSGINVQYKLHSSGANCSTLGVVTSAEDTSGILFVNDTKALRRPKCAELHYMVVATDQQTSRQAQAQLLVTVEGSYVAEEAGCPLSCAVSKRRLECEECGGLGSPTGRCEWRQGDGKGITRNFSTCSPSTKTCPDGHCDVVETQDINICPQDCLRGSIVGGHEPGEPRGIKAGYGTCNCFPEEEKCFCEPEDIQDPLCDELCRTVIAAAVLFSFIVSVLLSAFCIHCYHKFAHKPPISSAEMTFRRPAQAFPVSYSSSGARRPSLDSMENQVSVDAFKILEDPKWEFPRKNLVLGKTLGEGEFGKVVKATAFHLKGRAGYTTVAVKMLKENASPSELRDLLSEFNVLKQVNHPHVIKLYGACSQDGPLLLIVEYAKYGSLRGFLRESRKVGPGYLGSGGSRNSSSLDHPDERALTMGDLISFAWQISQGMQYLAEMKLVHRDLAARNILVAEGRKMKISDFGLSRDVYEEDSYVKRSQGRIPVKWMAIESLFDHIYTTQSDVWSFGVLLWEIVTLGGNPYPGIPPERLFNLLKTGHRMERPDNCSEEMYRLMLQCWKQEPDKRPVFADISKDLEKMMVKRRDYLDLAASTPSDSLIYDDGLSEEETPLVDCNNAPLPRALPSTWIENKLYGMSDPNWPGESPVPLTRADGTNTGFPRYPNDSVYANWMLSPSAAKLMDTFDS
Chain of UniProt Q9P0L2 (whole entry, looked up): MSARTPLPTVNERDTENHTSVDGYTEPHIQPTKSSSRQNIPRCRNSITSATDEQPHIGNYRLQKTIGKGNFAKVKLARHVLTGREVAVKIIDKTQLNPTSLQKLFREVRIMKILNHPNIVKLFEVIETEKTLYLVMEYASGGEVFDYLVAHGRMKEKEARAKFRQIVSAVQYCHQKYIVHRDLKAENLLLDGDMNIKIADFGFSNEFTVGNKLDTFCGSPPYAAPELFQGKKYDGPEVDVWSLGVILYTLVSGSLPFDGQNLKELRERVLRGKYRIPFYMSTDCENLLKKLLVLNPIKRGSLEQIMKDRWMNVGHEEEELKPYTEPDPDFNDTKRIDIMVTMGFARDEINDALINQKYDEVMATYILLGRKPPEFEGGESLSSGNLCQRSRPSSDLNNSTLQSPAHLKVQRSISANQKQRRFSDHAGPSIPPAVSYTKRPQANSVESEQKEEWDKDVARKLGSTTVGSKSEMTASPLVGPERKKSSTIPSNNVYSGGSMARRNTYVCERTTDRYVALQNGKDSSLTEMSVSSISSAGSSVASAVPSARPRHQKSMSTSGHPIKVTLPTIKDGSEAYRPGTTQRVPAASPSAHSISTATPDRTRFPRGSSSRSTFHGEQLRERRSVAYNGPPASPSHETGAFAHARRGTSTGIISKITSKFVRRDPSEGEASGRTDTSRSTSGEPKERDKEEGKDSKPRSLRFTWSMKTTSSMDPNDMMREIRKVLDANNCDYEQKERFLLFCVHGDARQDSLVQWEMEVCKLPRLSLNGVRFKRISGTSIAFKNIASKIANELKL
Chain of UniProt P46734 (whole entry, looked up): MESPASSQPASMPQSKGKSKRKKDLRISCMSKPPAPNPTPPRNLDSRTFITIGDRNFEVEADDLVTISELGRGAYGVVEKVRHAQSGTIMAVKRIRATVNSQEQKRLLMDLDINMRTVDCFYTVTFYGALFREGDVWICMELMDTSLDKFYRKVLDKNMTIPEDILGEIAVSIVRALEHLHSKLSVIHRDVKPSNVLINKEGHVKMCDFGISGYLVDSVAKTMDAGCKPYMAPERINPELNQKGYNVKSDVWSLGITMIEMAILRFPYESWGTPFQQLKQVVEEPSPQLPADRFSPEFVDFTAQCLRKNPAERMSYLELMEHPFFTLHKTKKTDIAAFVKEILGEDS
Chain of UniProt P49840 (whole entry, looked up): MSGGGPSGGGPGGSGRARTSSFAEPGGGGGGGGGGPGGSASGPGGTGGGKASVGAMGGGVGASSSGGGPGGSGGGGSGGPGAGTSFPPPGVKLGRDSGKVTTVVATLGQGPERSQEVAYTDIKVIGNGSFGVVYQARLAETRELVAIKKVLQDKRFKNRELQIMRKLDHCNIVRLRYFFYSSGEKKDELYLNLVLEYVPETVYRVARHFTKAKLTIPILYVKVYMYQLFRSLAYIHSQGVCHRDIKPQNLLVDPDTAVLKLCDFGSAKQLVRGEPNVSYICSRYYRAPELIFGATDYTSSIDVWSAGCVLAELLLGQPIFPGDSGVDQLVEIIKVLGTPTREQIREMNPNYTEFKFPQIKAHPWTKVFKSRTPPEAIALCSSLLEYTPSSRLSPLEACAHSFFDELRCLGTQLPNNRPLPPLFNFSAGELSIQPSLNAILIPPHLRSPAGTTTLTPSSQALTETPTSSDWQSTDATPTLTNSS

Sample 1
Structure (SMILES): C[C@@H]1CN(c2ccc(-c3cc(C(=O)NCCOCCOCCOCCOCCNC(=O)Cn4cc(-c5[nH]cc(C(=O)N[C@@H](CC(N)=O)c6ccc(F)c(Cl)c6)c5-c5ccc(Cl)cc5F)cn4)ccc3F)cc2NC(=O)c2c[nH]c(=O)cc2C(F)(F)F)C[C@H](C)N1C
Observed: thermal unfolding
Method: differential scanning fluorimetry
Concentration: 5.5 µM
Reading: higher = more unfolded
DCAF1: DDB1- and CUL4-associated factor 1 (DCAF1, Homo sapiens, UniProt Q9Y4B6)
Chain of UniProt Q9Y4B6 (whole entry, looked up): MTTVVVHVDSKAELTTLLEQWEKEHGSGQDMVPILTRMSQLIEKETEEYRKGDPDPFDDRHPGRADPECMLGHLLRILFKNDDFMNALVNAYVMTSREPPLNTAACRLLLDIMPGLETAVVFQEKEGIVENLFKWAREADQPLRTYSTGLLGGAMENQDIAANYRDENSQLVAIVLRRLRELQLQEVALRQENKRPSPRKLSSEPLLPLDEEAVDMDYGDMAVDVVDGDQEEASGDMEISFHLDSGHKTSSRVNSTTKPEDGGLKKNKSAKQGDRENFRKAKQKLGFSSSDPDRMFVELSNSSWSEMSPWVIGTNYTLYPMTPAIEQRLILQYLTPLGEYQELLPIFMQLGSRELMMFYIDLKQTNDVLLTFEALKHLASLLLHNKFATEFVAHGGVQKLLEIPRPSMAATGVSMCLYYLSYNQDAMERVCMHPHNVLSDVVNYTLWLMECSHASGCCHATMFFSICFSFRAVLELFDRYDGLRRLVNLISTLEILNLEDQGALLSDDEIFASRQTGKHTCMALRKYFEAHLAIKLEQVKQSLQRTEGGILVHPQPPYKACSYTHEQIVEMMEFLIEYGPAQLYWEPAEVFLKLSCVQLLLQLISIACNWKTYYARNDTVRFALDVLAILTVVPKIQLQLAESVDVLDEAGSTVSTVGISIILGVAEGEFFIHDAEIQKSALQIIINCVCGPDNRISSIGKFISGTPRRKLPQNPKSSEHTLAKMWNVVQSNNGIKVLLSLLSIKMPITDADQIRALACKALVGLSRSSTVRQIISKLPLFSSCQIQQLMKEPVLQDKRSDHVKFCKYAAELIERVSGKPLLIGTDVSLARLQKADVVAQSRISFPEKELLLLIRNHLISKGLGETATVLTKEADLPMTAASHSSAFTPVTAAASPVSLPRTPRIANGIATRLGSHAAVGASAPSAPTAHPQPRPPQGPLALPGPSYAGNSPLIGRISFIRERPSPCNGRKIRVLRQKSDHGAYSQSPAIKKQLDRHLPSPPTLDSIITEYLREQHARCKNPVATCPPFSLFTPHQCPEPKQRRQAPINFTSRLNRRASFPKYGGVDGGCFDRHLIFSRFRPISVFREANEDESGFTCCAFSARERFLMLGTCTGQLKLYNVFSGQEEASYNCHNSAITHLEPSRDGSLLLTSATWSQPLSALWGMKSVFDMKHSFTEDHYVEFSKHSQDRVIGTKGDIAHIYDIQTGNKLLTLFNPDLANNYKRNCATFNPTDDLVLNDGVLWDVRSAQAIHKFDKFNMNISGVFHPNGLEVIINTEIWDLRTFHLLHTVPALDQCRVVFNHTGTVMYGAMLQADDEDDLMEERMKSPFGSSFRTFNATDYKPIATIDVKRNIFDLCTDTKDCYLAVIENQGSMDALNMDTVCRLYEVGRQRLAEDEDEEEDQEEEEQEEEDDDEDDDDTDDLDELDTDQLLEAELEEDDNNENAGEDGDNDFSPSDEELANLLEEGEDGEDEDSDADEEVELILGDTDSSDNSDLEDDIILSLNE
WDR5: WD repeat-containing protein 5 (WDR5, Homo sapiens, UniProt P61964)
target	temperature	SYPRO Orange fluorescence
DCAF1	66.61 °C	56800 a.u.
WDR5	42 °C	14200 a.u.
DCAF1	66.41 °C	56700 a.u.
WDR5	26 °C	14700 a.u.
WDR5	89.61 °C	43400 a.u.
WDR5	82.01 °C	29900 a.u.
WDR5	40 °C	14200 a.u.
WDR5	94.61 °C	38400 a.u.
DCAF1	42.2 °C	11100 a.u.
WDR5	30.8 °C	15000 a.u.
WDR5	38.8 °C	14400 a.u.

Sample 2
SMILES: COc1cc(-c2nc3ccc(C(=O)NCCCN4CCN(c5cccc(C)c5C)CC4)cc3n2C2CCC2)cc(OC)c1OC
target	observed	method	concentration	remaining binding [%]
WNK4 (Homo sapiens, UniProt Q96J92)	binding	competition with immobilised ligand	1 µM	100
Tyrosine-protein kinase ABL1, phosphorylated (ABL1, Homo sapiens, UniProt P00519, Q252H)	binding	competition with immobilised ligand	1 µM	73
ERBB3 (Homo sapiens, UniProt P21860)		KINOMEscan	1000 nM	80
GSK3A (Homo sapiens, UniProt P49840)	binding	competition with immobilised ligand	1 µM	98
PIK3CA (Homo sapiens, UniProt P42336, M1043I)	binding	competition with immobilised ligand	1 µM	100
WEE1 (Homo sapiens, UniProt P30291)	binding	competition with immobilised ligand	1 µM	89
MAP2K3 (Homo sapiens, UniProt P46734)	binding	competition with immobilised ligand	1 µM	88
Tyrosine-protein kinase ABL1, phosphorylated (ABL1, Homo sapiens, UniProt P00519, F317I)	binding	competition with immobilised ligand	1 µM	84
MAPK7 (Homo sapiens, UniProt Q13164)	binding	competition with immobilised ligand	1 µM	100
EGFR (Homo sapiens, UniProt P00533)	binding	competition with immobilised ligand	1 µM	86
DSTYK (Homo sapiens, UniProt Q6XUX3)	binding	competition with immobilised ligand	1 µM	78
NLK (Homo sapiens, UniProt Q9UBE8)	binding	competition with immobilised ligand	1 µM	81
TXK (Homo sapiens, UniProt P42681)	binding	competition with immobilised ligand	1 µM	67
PLK2 (Homo sapiens, UniProt Q9NYY3)	binding	competition with immobilised ligand	1 µM	77
MARK1 (Homo sapiens, UniProt Q9P0L2)	binding	competition with immobilised ligand	1 µM	87
CRK2 (Plasmodium falciparum, UniProt P61075)	binding	competition with immobilised ligand	1 µM	87
RET (Homo sapiens, UniProt P07949, V804M)	binding	competition with immobilised ligand	1 µM	98
MARK4 (Homo sapiens, UniProt Q96L34)	binding	competition with immobilised ligand	1 µM	83
STK17A (Homo sapiens, UniProt Q9UEE5)	binding	competition with immobilised ligand	1 µM	100
Tyrosine-protein kinase ABL1, phosphorylated (ABL1, Homo sapiens, UniProt P00519, F317L)	binding	competition with immobilised ligand	1 µM	99
BMPR2 (Homo sapiens, UniProt Q13873)	binding	competition with immobilised ligand	1 µM	89
Cyclin-dependent kinase 4, with cyclin D3 (CDK4, Homo sapiens, UniProt P11802)	binding	competition with immobilised ligand	1 µM	100
PKN2 (Homo sapiens, UniProt Q16513)	binding	competition with immobilised ligand	1 µM	92
NEK11 (Homo sapiens, UniProt Q8NG66)		KINOMEscan	1000 nM	81
KIT (Homo sapiens, UniProt P10721, V559D)	binding	competition with immobilised ligand	1 µM	98

Sample 3
Cell line: HCC1569
Observed: CDK1 Thr14 phosphorylation
Method: in-cell western
Concentration: 4.12 nM
Reading: lower = stronger inhibition
SMILES	phospho-CDK1 (Thr14) level
Cc1ccc(O)c(C)c1-c1cnc2[nH]c(-c3cnc(N4CCC(CN5CCN(c6cc7c(cc6F)c(N6CCC(=O)NC6=O)nn7C)CC5)CC4)nc3)cc2c1C#N	19.6 a.u. and 29.5 a.u.
Cc1ccc(O)c(C)c1-c1cnc2[nH]c(-c3cnc(N4CC5(CC(CN6CCN(c7ccc(NC8CCC(=O)NC8=O)cc7F)CC6)C5)C4)nc3)cc2c1C#N (stereo not drawn)	39.6 a.u. and 33.6 a.u.
Cc1ccc(O)c(C)c1-c1cnc2[nH]c(-c3cnc(N4CCC(CN5CCN(c6ccc7c(c6)C(=O)N(C6CCC(=O)NC6=O)C7=O)CC5)CC4)nc3)cc2c1C#N (stereo not drawn)	17.8 a.u. and 22.8 a.u.
Cc1ccc(O)c(C)c1-c1cnc2[nH]c(-c3cnc(N4CCC(CN5CCN(c6cc7c(cc6F)n(C6CCC(=O)NC6=O)c(=O)n7C)CC5)CC4)nc3)cc2c1C#N (stereo not drawn)	7.2 a.u. and 7.8 a.u.
Cc1ccc(O)c(C)c1-c1cnc2[nH]c(-c3cnc(N4CCC(CN5CCN(c6ccc(NC7CCC(=O)NC7=O)cc6F)CC5)CC4)nc3)cc2c1C#N (stereo not drawn)	20.1 a.u. and 26.4 a.u.

Sample 4
Structure (SMILES): Cc1ncsc1-c1ccc(C(CO)NC(=O)C2CC(O)CN2C(=O)C(C(C)C)n2cc(-c3ccc(COc4c(-c5c(C)c(F)cc6[nH]ncc56)c(C5CC5)cc5c(N6CC7CC6CN7)nc(OC6CCOCC6)nc45)cc3)nn2)cc1 (stereo not drawn)
Observed: cell growth or viability
Method: ATP luminescence
Time: 6 days
cell line	concentration	viability
HPAC	10 µM	2.66% and 1.83% and 2.53% and 6.26%
BXPC-3	300 pM	98.4% and 85% and 77.3% and 85.8%
BXPC-3	0.1 µM	158% and 119% and 118% and 76.5%
GP5d	30 nM	50.8% and 31.9% and 39.9% and 49.6%
LCLC-97TM1	1 nM	107% and 110%
COLO 320	1 nM	82.2% and 86.7% and 84.9% and 93.4%
HCT-116	0.3 µM	71.8% and 66.5% and 65.4% and 64.1%
ASPC1	1 µM	8.78% and 5.21% and 7.56% and 6.26%
T24	1 µM	98.9% and 97.4% and 98.7% and 94.9%
HT-29	0.1 µM	86.1% and 120% and 112% and 119%

A few entries again (sample 2):
target	observed	method	concentration	remaining binding [%]
MARK1 (Homo sapiens, UniProt Q9P0L2)	binding	competition with immobilised ligand	1 µM	87
CRK2 (Plasmodium falciparum, UniProt P61075)	binding	competition with immobilised ligand	1 µM	87
RET (Homo sapiens, UniProt P07949, V804M)	binding	competition with immobilised ligand	1 µM	98
MARK4 (Homo sapiens, UniProt Q96L34)	binding	competition with immobilised ligand	1 µM	83
